Published values pooled from the literature.
Every numbered part comes from another study and shows a few of its results, in no order.
Sequence of UniProt Q9P286 (whole entry, looked up): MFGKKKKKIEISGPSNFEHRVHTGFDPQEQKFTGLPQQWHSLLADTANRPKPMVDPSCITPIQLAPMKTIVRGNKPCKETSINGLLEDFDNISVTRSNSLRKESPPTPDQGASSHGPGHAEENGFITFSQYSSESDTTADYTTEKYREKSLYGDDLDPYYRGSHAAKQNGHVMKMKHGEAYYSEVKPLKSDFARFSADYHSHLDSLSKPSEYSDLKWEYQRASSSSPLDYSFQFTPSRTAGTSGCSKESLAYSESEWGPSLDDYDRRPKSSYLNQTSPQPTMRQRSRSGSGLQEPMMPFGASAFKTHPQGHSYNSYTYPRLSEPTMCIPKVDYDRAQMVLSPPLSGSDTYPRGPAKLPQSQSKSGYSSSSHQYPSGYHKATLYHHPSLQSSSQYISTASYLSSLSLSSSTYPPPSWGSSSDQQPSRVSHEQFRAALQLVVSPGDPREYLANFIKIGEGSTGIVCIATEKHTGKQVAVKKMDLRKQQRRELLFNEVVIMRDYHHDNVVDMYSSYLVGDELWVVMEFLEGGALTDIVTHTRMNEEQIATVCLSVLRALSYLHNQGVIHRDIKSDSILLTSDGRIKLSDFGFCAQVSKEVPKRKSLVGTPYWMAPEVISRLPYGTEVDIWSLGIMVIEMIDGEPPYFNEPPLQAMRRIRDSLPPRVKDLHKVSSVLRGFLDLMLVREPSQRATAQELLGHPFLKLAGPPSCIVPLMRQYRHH
Sequence of UniProt O43683 (whole entry, looked up): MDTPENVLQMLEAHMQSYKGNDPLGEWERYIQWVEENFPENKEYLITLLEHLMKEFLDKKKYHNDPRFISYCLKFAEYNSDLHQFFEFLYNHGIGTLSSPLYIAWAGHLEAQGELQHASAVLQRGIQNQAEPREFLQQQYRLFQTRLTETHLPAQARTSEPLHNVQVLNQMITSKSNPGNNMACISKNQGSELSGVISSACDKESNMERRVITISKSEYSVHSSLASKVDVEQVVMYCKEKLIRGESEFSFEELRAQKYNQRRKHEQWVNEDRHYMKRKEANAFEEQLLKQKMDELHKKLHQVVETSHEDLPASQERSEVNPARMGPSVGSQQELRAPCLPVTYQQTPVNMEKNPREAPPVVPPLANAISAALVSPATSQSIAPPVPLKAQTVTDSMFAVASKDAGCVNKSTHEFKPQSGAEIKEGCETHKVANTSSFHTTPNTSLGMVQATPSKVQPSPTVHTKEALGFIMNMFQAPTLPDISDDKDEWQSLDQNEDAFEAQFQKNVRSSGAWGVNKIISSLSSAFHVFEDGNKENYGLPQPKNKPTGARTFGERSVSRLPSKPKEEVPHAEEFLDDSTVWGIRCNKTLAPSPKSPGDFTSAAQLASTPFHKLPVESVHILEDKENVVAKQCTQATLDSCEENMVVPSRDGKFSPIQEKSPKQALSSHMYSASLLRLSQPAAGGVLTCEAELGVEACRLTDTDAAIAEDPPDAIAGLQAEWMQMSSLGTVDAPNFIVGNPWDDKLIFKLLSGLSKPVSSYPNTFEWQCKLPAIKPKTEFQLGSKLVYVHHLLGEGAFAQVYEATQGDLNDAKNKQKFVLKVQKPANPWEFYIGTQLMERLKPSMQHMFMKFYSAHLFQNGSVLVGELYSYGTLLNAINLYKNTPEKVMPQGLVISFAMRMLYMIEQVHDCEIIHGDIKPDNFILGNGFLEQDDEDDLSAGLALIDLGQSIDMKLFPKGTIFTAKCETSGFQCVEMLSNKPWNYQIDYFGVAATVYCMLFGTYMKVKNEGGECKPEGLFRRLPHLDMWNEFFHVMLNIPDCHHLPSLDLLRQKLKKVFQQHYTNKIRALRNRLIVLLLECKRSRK
Sequence of UniProt P78368 (whole entry, looked up): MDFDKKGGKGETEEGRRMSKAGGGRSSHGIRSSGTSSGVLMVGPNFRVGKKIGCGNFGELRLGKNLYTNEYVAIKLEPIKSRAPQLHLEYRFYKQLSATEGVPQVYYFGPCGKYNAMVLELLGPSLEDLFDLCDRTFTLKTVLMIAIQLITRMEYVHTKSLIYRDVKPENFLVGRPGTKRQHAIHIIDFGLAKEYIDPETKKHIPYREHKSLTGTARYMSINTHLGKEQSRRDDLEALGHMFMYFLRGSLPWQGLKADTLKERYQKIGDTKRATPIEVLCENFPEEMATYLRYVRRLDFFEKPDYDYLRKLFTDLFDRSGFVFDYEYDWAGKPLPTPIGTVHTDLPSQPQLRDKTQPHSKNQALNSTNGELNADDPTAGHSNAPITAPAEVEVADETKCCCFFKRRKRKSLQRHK
Sequence of UniProt Q13523 (whole entry, looked up): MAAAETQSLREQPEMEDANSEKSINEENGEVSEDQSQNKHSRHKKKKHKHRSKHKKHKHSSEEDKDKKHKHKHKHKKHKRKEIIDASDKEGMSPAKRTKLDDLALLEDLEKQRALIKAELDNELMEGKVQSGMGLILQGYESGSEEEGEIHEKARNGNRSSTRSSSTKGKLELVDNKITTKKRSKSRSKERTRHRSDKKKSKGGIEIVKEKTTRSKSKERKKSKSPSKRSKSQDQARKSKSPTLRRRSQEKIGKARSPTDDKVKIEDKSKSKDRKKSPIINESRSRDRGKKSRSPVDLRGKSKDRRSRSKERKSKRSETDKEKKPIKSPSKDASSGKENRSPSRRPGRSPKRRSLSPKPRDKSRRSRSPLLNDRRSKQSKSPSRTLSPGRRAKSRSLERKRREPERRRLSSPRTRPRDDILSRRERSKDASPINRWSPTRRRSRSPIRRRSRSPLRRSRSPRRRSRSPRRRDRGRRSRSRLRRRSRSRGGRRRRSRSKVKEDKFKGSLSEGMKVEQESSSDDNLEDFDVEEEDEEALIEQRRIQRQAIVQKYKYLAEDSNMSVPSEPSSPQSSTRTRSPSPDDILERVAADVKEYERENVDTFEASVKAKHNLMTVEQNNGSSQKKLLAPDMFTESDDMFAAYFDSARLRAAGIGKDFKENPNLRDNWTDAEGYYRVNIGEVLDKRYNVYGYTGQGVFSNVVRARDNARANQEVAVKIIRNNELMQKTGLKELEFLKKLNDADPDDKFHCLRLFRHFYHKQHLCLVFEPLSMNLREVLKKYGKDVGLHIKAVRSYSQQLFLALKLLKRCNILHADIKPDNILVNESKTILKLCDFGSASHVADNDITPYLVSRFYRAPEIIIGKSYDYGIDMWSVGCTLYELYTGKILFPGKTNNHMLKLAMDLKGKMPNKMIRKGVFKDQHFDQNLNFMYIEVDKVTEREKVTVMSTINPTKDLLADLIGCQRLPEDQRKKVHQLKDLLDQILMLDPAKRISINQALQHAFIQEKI
Sequence of UniProt Q02763 (whole entry, looked up): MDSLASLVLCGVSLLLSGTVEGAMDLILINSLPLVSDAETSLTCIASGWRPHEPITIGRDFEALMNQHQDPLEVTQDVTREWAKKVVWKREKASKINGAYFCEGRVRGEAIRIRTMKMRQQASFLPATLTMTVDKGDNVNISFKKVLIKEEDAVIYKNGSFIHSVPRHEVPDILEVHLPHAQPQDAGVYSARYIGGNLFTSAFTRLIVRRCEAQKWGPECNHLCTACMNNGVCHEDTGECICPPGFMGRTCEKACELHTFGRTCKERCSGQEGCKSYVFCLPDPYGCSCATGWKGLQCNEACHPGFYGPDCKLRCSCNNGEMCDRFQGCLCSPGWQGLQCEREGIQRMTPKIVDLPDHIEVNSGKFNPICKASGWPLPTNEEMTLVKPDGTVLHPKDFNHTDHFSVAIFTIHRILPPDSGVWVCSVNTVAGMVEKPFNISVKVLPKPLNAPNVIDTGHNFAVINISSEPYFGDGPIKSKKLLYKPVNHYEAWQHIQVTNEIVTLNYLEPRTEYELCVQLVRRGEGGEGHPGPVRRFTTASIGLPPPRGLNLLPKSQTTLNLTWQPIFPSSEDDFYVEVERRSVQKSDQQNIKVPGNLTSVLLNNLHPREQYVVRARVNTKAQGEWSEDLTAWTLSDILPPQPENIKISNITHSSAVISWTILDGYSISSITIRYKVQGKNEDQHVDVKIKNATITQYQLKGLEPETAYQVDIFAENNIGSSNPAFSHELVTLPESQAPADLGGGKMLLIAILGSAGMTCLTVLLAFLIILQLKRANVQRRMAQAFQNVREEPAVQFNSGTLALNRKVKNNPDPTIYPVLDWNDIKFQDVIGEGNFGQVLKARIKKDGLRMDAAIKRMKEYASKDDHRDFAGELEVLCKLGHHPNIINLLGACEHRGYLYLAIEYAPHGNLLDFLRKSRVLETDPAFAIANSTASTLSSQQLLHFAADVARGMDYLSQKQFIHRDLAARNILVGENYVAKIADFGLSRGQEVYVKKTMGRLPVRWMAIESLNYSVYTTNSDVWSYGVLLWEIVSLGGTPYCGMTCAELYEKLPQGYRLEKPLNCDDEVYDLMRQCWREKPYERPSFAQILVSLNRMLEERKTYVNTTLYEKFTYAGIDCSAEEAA

Sample 1
Target: RNA binding protein fox-1 homolog 2, RRM domain, GST-SBP tag (RBFOX2, Homo sapiens, UniProt O43251-10, residues 100-194)
Technique: RNA Bind-n-Seq
Molecule type: RNA
Sample: in vitro
Concentration: 365 nM
Setting: natural RNA segment, single round, ends assumed
Relative to: no-protein control
Direction: higher = stronger binding
All sequences stand within: GGGAGUUCUACAGUCCGACGAUC … UGGAAUUCUCGGGUGCCAA
Construct (chain): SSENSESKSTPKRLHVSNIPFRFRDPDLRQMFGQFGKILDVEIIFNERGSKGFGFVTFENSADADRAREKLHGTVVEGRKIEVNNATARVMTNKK
`UGGUCAAAGUUUUCUGUUUAUUUUGCUUGUCAUAUUCGAUGUACUUUAAGGUGUCUUUAUGAAGUUUGCUAUUCUGGCAAUAAACUUUUAGACUUUUGAAGUGUUUGUGU`: “RBNS enrichment (R)” 0.689.
For `UGCACAGAUGUUGAAUGAACAUCUGUUUGGGGCAUUGGAGGGAAAAGGAAAGGACCCUGAAGCCAAUAUCUGAUUCUCGGCUGCACCUUCUCUUGGCCACCCUGGCCCUG`, “RBNS enrichment (R)” read 0.243.
`UAUGCGUAUGUGCACGGGGCCGCCCGCCUGGACCUGGAGAAGGGACCUACGGACGCCUGGAAGCUGCGACGCCCUGCACUGCUCCCGCCUCCACCAGCGCCUCCCACUGA`: “RBNS enrichment (R)” 0.834.
For `CAGCUGACUUCCAGUACUGUGAAUCCGCCCCUGUCAGAAGUGGCUGACCCUGUUUCUCCUCAGAUGACAACCACCACUCCUGAGGUCUUUGUCCUCUCCUUGUCCCUUCA`, “RBNS enrichment (R)” read 0.357.
`GCAUCCAAGGUAUACAUACAUAUUCAUCGAUGUUUCGUGCUUCUCCUUAUGAAACUCCAGCUAUGUAAUAAAAAACUAUACUCUGUGUUCUGUUAAUGCCUCUGAGUGUC` — result for “RBNS enrichment (R)”: 0.681.
For `UUUUGAUCUCUUUGGGGAAUCUGGAGUACAGGCCUCUCCGCCCCUGACCACCGAAACGUGCAGGCAUUCUCACUCACACUGGGCAGCCCGCUGUCGGGUCUCUCUAGGCC`, “RBNS enrichment (R)” read 0.244.
For `AGCACUGUUAGACACACACAGACCUGCAGGCUGUUUUAGAAUGUUUUGAUCUCUUUGGGGAAUCUGGAGUACAGGCCUCUCCGCCCCUGACCACCGAAACGUGCAGGCAU`, “RBNS enrichment (R)” read 0.685.
`CUCUGCCUCAGUGGGCCUGUGGGAGCCUACUGGAGCCCAGCACUUACUCCCCCUGAGCAGCGAGCCUGCGUCUGUCUCAGCUGUCCAGCGCUGAGGGCCAGGGUCUUGUG`: “RBNS enrichment (R)” 0.67.

Sample 2
Target: Serine/threonine-protein kinase 16 (STK16, Homo sapiens, UniProt O75716)
Sequence of UniProt O75716 (whole entry, looked up): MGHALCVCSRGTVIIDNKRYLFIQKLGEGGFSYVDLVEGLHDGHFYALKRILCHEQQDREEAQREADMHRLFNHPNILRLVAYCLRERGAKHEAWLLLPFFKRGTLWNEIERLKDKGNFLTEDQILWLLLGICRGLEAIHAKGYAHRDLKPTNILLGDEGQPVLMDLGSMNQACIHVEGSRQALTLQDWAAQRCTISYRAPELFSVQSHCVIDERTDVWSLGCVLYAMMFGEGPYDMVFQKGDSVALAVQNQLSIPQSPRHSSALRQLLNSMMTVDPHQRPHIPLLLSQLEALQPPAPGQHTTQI
Effect on: enzyme activity
Mode: inhibitor
Concentration: 0.5 µM
Relative to: control
`Cc1nc(-c2ccccc2)c(-c2ccncc2)o1` has a remaining activity of 109%.
For `COc1cc2ncnc(Nc3ccc(Oc4ccccc4)cc3)c2cc1OC`, the remaining activity was 107%.
The remaining activity of `Cc1cccc(-c2[nH]c(C(C)(C)C)nc2-c2ccc3c(c2)OCO3)n1` is reported as 90.1%.
For `O=c1c2ccccc2[nH]c(=S)n1CCN1CCC(=C(c2ccc(F)cc2)c2ccc(F)cc2)CC1`, the remaining activity was 104%.
With `COc1ccc(CNC(=O)Nc2ncc([N+](=O)[O-])s2)cc1` the remaining activity was 99.9%.
`O=C1NC(=O)C(c2cn(CCCn3ccnc3)c3ccccc23)=C1Nc1ccccc1` gave a remaining activity of 110%.
With `CN(C)c1ccc(C=C2C(=O)Nc3ccccc32)cc1` the remaining activity was 87.9%.
`Nc1[nH]nc2nc3ccccc3nc12` has a remaining activity of 91.9%.
With `Nc1ccc2ncnc(NCCc3ccc(Oc4ccccc4)cc3)c2c1` the remaining activity was 94.7%.
`COc1ccc(C(=O)Nc2sc3c(c2C(N)=O)CCCC3)cc1OC` gave a remaining activity of 106%.

Sample 3
SMILES: CN(C(=O)c1ccccc1)c1cc(N(C)c2ccc3c(c2)CCc2ccc(C(=O)NCCN4CCOCC4)cc2C3=O)ccc1F
Effect on: cell-free assay
Technique: competition with immobilised ligand
Concentration: 1 µM
CDK9 (Homo sapiens, UniProt P50750) — remaining binding: 97%.
It gave 90% for remaining binding (CSNK1G2 (Homo sapiens, UniProt P78368)).
For PNCK (Homo sapiens, UniProt Q6P2M8): remaining binding read 86%.
For PIK3CB (Homo sapiens, UniProt P42338): remaining binding read 90%.
The remaining binding was 100% (CSNK1G1 (Homo sapiens, UniProt Q9HCP0)).
For LIM domain kinase 1 (LIMK1, Homo sapiens, UniProt P53667): remaining binding read 100%.
CDK7 (Homo sapiens, UniProt P50613) — remaining binding: 100%.
For BUB1 (Homo sapiens, UniProt O43683): remaining binding read 100%.
PRPF4B (Homo sapiens, UniProt Q13523) — remaining binding: 70%.
It gave 63% for remaining binding (TEK (Homo sapiens, UniProt Q02763)).
The remaining binding was 89% (SYK (Homo sapiens, UniProt P43405)).
The remaining binding was 100% (MERTK (Homo sapiens, UniProt Q12866)).
The remaining binding was 98% (CHEK1 (Homo sapiens, UniProt O14757)).
The remaining binding was 95% (PAK5 (Homo sapiens, UniProt Q9P286)).

Sample 4
Target: Centromere-binding protein 1, full length, N-terminal tag (CBF1, Saccharomyces cerevisiae, UniProt P17106, residues 1-351)
Sequence of UniProt P17106 (whole entry, looked up): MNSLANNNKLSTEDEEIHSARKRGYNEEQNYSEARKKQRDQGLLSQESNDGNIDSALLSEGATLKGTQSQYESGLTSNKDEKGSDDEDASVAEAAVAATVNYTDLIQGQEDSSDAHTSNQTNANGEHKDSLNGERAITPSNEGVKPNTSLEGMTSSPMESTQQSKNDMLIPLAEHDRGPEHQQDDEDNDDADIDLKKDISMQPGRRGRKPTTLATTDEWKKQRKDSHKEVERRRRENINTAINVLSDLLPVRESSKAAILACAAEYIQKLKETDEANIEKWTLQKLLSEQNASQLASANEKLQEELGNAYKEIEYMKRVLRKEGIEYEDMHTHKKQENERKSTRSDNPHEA
Technique: protein-binding microarray
Molecule type: double-stranded DNA, one strand shown
Sample: in vitro
Concentration: 0.8 µM
Setting: whole 60-bp probe, no competitor
Direction: higher = stronger binding
All sequences stand within: … GTCTTGATTCGCTTGACGCTGCTG
For `TGTACGAAGCTATCTGATGTAATTATAGTAGTTAGG`, the fluorescence intensity was 542 a.u.
For `CTATATGAAGTTGCACACATCAGCGGGAAAGATTTC`, the fluorescence intensity was 542 a.u.
The fluorescence intensity of `GAATTGGCTTATTAAGACATCAGAGTTCATTAATAG` is reported as 532 a.u.
For `CTAACCCTCATAAAGCACGTGGCCTCTTATCGATTC`, the fluorescence intensity was 7690 a.u.
`CTAACTTACTTATGTCACATGCAAGACGTAGACTTC` has a fluorescence intensity of 3030 a.u.
`CTAGTGATACCGCGTCACATGACCATTTAAAAGTTC` gave a fluorescence intensity of 13700 a.u.
For `CTAATATCTGACACGCACGTGATGACCACGTAATTC`, the fluorescence intensity was 7260 a.u.
With `CTATCGTGGTCCTCTCATGTCACGTCAAAATTTTTC` the fluorescence intensity was 702 a.u.
